Published values collected from several papers.
Lines come from different studies, so protocols differ. Several values in a cell are separate wells, animals, samples, runs or records.

Structure (SMILES)	target or system	assay	system	setting	how to read	endpoint	value
COC1=C2CC(C)CC(OC)C(O)C(C)C=C(C)C(OC(N)=O)C(OC)C=CC=C(C)C(=O)NC(=CC1=O)C2=O (stereo not drawn)	Rh30	ChIP-seq, measured: H3K36me3 peak		concentration not given, EIF3D intron chr22:36905200-36926599	baseline: untreated control	log fold change	-0.506
CN1CCCNC(=O)c2cccc(c2)C(=O)NCCCN(C)CCCNc2cccc3c2C(=O)c2cccc(c2C3=O)NCCC1	SAS	RNA-Seq, measured: CYB5D2 mRNA		1 µM, 6 h	baseline: untreated cells	log2 fold change	1.47
COc1ccc2c(-c3ccc(O)c(C)c3)ccnc2c1	HEK-Blue TLR8 cells	TLR8 activation		80 nM, added: ssRNA40 2.5 µg/mL		inhibition	inhibited
Cc1ncsc1-c1ccc(C(C)NC(=O)C2CC(O)CN2C(=O)C(NC(=O)CCCCCCCCCCN2CCCC(Nc3ncc(Cl)c(Nc4ccccc4S(=O)(=O)C(C)C)n3)C2)C(C)(C)C)cc1 (stereo not drawn)	22Rv1	RNA-seq, measured: SIX5 mRNA		concentration not given	baseline: DMSO	log2 fold change	-1.15
CNS(=O)(=O)Nc1nccc(Cc2c(C)c3ccc(Oc4ncccc4F)cc3oc2=O)c1F	SUM149PT	cell viability		7 days		IC50	0.0142 µM
COc1c(C)c(O)c(C(=O)C=Cc2ccccc2)c(OC)c1C	KKU-M213	SRB			baseline: normal over KKU-M213 IC50	selectivity index	1.06
CC(C)Cc1ccc(C(C)C(=O)[Se]CC(=O)Nc2cccc(C(F)(F)F)c2)cc1 (stereo not drawn)	NCI60 renal subpanel	cell growth, inhibitor		five-dose		GI50	1.96 µM
CCN(CC)CC(=O)Nc1cccc(-n2cc(-c3ccc4ccc(-c5cn(-c6cccc(NC(=O)CN(CC)CC)c6)nn5)cc4c3)nn2)c1	RCC4	PCR array, measured: CTGF		5 x IC50, 4 h, normoxia	baseline: untreated	fold regulation	-1.79
O=C(C[Se]C(=O)c1cccnc1Nc1cccc(C(F)(F)F)c1)Nc1cccc(C(F)(F)F)c1	LNCaP	caspase 3/7		10 µM, 24 h		late apoptotic/dead cells	35.7%
CC(C)c1ccc(N(C)c2ccc3c(c2)OCC[C@H]3CNc2cnccc2C(=O)O)cc1	NCI-H1155	cell viability, CellTiter-Glo		7 days		IC50	0.000765 µM
Cc1noc(C)c1-c1cc2c(N3CCC[C@H](C(=O)NCc4ccc(OC(F)(F)F)cc4)C3)ncnc2[nH]1	NCI-H2228	cell growth or viability, MTT		0.2 µg/mL, 72 h		inhibition	65.3%
COc1ccc2c(C)nc(Nc3nc(O)cc(-c4ccccc4)n3)nc2c1	LDR	silenced CMV-GFP reporter derepression, qHTS				EC50	3.16 µM
Cc1cc(NC2CCN(C)CC2)ccc1-c1cc2c(N3CCC[C@H](C(=O)N[C@@H](C)c4ccccc4)C3)ncnc2[nH]1	NCI-H2228	cell growth or viability, MTT		1 µg/mL, 72 h		inhibition	74.3%
COc1ccccc1-c1ccncc1C(=O)Nc1nnc(OCc2ccc(Cl)cc2)s1	DLD-1 BRCA2-knockout	immunofluorescence		5 µM, 96 h, >5 foci per nucleus		γH2AX foci-positive nuclei	51.7% and 44% and 48.2%
COc1ccc(NC(=O)C2CCCN(c3ncnc4[nH]c(-c5ccc(NC6CCN(C)CC6)cc5C)cc34)C2)cc1 (stereo not drawn)	NCI-H2228	cell growth or viability, MTT		0.0003 µg/mL, 72 h		inhibition	44.7%
COC1CN([C@H]2CC[C@H]([C@@]3(C)Oc4c(Cl)cc(C(=O)NCc5c(SC)cc(C)[nH]c5=O)c(C)c4O3)CC2)C1		RNA-seq, measured: NRIP3	human, whole blood	dose not given, 24 h	baseline: pretreatment baseline	log2 fold change	4.56
Cn1cc(-c2cc3c(N4CCC[C@H](C(=O)NCc5ccc(OC(F)(F)F)cc5)C4)ncnc3[nH]2)cn1	NCI-H2228	cell growth or viability, MTT		1 µg/mL, 72 h		inhibition	72.2%
Cn1ncc2cc(-c3cncc(Cl)c3N3CCC4(CCNC4=O)CC3)ccc21	LS174T	gene expression, microarray, measured: MFN2 mRNA		concentration not given, 24 h	baseline: untreated cells	log2 fold change	-2.1

Repeated from above:
Structure (SMILES)	target or system	assay	system	setting	how to read	endpoint	value
CN1CCCNC(=O)c2cccc(c2)C(=O)NCCCN(C)CCCNc2cccc3c2C(=O)c2cccc(c2C3=O)NCCC1	SAS	RNA-Seq, measured: CYB5D2 mRNA		1 µM, 6 h	baseline: untreated cells	log2 fold change	1.47
